Experimental data of several laboratories.
Every numbered part comes from another study and shows a few of its results, in no order.

Sample 1
Target: Sal-like protein 4, full length isoform B (SALL4, Homo sapiens, UniProt Q9UJQ4-2, residues 1-616)
Method: universal PBM
Molecule type: double-stranded DNA, one strand shown
Sample: in vitro
Tested at: not given
Setting: 8-mer, flanks averaged, mean of replicates
Reading: higher = stronger binding
| Sequence | E-score |
| --- | --- |
| CGTGCCTA | -0.143 |
| CGTCCCTA | -0.101 |
| CCTGGAAC | -0.152 |
| GTAAGAGA | 0.0573 |
| GGTCATTA | 0.1 |
| ACTGACAC | -0.0692 |
| GATATCCA | 0.215 |
| AGATGGTC | -0.177 |
| ACTACGTA | 0.157 |
| CTCCGTAC | -0.253 |
| CGATAGGA | -0.00435 |
| ATTGGATA | 0.229 |
| AAGCAAGT | 0.0821 |
| CTTTCTCA | 0.214 |
| AAAGAGTG | -0.017 |
| GCTAAACA | 0.0455 |

Sample 2
Target: BIRC6 UBC core domain (UniProt Q9NR09)
Chain of UniProt Q9NR09 (whole entry, looked up): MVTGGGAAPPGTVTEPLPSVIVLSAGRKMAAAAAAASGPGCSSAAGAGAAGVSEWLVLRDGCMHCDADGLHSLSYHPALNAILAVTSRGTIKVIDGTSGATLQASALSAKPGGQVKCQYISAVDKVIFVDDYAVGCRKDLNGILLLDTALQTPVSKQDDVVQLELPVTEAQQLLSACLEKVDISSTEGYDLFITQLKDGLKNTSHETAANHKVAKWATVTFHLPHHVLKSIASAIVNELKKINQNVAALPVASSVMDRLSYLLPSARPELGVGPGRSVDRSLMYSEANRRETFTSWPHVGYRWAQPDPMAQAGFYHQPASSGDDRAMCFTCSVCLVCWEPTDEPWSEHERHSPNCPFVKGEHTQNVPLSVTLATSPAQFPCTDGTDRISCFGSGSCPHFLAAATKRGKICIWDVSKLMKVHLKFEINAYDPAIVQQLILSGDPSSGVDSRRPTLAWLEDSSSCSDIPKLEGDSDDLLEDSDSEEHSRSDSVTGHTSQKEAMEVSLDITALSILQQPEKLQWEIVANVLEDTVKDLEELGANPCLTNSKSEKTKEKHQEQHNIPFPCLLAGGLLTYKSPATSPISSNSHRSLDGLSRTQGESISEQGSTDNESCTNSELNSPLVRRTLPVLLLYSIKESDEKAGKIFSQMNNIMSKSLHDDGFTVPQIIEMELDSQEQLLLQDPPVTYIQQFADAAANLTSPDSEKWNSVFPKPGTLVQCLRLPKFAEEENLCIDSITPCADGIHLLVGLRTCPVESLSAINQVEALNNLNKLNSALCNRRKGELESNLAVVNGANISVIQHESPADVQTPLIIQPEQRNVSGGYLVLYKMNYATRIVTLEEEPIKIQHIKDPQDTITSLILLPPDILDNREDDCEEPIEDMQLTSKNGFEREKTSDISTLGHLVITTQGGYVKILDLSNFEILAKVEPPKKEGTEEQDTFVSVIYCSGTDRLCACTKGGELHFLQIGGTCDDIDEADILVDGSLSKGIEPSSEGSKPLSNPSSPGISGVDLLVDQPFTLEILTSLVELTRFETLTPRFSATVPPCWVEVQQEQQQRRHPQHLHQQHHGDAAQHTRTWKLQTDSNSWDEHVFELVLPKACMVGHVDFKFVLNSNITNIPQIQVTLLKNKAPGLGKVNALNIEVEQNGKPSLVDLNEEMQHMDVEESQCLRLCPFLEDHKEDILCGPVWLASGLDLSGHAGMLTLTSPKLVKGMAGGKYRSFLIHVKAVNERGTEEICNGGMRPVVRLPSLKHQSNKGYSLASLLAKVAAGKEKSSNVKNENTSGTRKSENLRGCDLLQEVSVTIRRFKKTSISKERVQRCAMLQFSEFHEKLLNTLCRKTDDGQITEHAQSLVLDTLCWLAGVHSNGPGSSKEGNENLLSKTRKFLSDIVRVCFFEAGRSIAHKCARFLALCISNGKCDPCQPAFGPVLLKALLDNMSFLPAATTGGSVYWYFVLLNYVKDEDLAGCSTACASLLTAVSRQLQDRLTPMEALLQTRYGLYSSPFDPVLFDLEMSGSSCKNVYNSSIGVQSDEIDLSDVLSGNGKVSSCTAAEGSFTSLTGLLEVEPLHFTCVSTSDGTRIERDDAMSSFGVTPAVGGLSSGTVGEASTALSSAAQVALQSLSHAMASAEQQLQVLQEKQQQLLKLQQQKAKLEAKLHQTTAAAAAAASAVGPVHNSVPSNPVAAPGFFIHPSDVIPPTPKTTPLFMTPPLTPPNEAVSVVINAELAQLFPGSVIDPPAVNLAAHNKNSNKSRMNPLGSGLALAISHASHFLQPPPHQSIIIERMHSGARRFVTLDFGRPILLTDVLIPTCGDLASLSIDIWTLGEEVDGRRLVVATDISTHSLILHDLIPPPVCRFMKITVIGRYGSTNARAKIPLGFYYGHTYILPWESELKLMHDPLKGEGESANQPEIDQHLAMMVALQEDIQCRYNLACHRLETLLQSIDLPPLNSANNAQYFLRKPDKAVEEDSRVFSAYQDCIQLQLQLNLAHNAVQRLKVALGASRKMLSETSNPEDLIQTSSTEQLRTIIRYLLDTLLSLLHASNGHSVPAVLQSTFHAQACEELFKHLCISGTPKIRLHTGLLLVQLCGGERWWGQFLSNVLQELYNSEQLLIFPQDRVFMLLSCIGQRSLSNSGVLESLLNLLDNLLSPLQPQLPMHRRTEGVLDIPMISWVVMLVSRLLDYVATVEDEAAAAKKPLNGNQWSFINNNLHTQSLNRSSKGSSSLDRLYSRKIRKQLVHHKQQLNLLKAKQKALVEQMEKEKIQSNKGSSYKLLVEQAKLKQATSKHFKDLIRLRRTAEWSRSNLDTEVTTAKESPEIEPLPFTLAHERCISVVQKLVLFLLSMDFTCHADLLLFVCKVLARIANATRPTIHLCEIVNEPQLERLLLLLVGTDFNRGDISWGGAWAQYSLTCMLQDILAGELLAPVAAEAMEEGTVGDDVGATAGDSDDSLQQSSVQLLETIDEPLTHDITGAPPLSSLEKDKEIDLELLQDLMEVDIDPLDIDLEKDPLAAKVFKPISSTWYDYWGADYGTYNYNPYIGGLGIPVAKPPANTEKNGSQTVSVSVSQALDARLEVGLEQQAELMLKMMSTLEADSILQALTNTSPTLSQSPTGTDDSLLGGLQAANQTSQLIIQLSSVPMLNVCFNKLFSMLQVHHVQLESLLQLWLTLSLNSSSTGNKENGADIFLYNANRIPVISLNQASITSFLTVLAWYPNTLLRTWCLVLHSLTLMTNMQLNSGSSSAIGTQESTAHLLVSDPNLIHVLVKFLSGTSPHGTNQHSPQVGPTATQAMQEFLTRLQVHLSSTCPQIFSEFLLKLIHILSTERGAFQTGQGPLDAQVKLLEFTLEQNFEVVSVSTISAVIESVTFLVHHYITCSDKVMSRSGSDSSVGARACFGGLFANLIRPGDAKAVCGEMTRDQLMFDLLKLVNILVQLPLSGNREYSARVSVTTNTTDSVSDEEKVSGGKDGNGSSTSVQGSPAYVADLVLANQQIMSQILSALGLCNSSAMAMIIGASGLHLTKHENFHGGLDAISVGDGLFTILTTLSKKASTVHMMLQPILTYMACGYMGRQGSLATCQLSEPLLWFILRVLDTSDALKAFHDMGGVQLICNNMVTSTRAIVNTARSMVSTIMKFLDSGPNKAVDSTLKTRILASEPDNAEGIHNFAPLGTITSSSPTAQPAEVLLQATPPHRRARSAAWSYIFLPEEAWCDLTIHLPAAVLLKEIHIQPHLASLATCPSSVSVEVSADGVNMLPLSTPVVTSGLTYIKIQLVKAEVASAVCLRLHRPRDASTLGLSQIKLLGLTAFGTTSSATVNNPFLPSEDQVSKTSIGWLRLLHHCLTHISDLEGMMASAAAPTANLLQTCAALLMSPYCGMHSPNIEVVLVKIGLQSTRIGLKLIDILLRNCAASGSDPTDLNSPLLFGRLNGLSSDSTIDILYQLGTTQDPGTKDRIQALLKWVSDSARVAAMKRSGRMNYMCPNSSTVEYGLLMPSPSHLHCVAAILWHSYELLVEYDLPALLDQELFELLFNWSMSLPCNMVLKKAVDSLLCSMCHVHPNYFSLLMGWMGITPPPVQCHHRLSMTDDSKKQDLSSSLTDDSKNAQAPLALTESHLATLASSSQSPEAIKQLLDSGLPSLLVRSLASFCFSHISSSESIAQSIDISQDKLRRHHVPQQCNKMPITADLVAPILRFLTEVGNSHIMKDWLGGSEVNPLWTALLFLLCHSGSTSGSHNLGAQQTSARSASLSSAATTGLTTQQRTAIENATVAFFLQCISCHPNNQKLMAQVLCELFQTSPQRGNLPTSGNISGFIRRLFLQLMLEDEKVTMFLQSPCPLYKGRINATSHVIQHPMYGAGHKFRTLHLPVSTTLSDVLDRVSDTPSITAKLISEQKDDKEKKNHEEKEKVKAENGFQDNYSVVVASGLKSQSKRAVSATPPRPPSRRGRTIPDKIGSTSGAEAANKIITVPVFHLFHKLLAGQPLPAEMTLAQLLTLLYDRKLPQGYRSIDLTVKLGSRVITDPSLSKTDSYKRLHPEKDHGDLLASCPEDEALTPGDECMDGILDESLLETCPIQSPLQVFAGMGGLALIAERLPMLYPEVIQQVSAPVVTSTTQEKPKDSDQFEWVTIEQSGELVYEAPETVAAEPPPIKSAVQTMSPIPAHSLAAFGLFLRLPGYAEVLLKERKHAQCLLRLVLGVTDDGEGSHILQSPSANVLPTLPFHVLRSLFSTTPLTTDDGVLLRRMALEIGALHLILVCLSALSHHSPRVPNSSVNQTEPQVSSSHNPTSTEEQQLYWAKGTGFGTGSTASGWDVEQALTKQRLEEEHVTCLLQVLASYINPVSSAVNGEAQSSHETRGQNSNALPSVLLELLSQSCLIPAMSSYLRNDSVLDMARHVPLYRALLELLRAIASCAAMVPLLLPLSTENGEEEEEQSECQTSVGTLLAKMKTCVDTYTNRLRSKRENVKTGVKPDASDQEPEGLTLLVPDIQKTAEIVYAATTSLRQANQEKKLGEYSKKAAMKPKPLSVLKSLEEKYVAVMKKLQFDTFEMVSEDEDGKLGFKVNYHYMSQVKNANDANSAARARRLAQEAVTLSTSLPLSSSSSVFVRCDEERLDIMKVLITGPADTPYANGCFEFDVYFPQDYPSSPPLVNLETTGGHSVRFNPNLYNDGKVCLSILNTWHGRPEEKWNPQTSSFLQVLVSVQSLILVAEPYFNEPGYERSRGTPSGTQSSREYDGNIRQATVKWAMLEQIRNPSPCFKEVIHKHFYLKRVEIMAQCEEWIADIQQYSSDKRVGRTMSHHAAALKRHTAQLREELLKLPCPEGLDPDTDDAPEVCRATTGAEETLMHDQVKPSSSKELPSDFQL
Method: yeast two-hybrid
Sample: yeast
Setting: mostly zero background
Reference: not given
Reading: higher = stronger interaction
B1: TRIM32 RING domain (UniProt Q13049); chain NLDALREVLECPICMESFTEEQLRPKLLHCGHTICRQCLEKLLASSINGVRCPFCSKITRITSLTQ
B2: CBLL1 RING domain (UniProt Q75N03); chain GEKDDTPVHFCDKCGLPIKIYGRMIPCKHVFCYDCAILHEKKGDKMCPGCSDPVQRIEQCT
B3: RNF10 RING domain (UniProt Q8N5U6); chain VRICSHEVPSCPICLYPPTAAKITRCGHIFCWACILHYLSLSEKTWSKCPICYSSVHKKDLKS
B4: NHLRC1 RING domain (UniProt Q6VVB1); chain MREAEISLLECKVCFEKFGHRQQRRPRNLSCGHVVCLACVAALAHPRTLALECPFCRRACRGCDTSD
B5: RNF115 RING domain (UniProt Q9Y4L5); chain TQEQVDMGLECPVCKEDYTVEEEVRQLPCNHFFHSSCIVPWLELHDTCPVCRKSLNGEDSTR
B6: TRIM47 RING domain (UniProt Q96LD4); chain MDGSGPFSCPICLEPLREPVTLPCGHNFCLACLGALWPHRGASGAGGPGGAARCPLCQEPFPDGLQLR
B7: UBE4B RING domain (UniProt O95155); chain KNARAEIDYSDAPDEFRDPLMDTLMTDPVRLPSGTIMDRSIILRHLLNSPTDPFNRQTLTESMLEPVPELKEQIQAWMREKQNSDH
B8: RNF17 RING domain (UniProt Q9BXT8); chain SQPWGAAEIQCTRCGRRVSRSSGHHCELQCGHAFCELCLLMTEECTTIICPDCEVATAVNTRQR
B9: TRIM34 RING domain (UniProt Q9BYJ4); chain ILLNVQEEVTCPICLELLTEPLSLDCGHSLCRACITVSNKEAVTSMGGKSSCPVCGISYSFEHLQA
B10: SHPRH RING domain (UniProt Q149N8); chain KTSGGVNPEPCPICARQLGKQWAVLTCGHCFCNECISIIIEQYSVGSHRSSIKCAICRQTTSHKEISY
B11: TRIM28 RING domain (UniProt Q13263); chain GAEALELLEHCGVCRERLRPEREPRLLPCLHSACSACLGPAAPAAANSSGDGGAAGDGTVVDCPVCKQQCFSKDIVE
| Molecule | lacZ reporter activity |
| --- | --- |
| VPADASPDSKCPICLDRFDNVSYLDRCLHKFCFRCVQEWSKNKAECPLCKQPFDSIFHSV (TOPORS RING domain (UniProt Q9NS56)) | 0 |
| EIKDYKARLTCPCCNMRKKDAVLTKCFHVFCFECVKTRYDTRQRKCPKCNAAFGANDFHR (RNF20 RING domain (UniProt Q5VTR2)) | 0 |
| B1 (TRIM32 RING domain) | 0 |
| AAQLLEEKLTCAICLGLYQDPVTLPCGHNFCGACIRDWWDRCGKACPECREPFPDGAELR (TRIM65 RING domain (UniProt Q6PJ69)) | 0 |
| B2 (CBLL1 RING domain) | 0 |
| PLRRLQEEKLCKICMDRHIAVVFIPCGHLVTCKQCAEAVDRCPMCSAVIDFKQRVF (BIRC8 RING domain (UniProt Q96P09)) | 0 |
| B3 (RNF10 RING domain) | 0 |
| B4 (NHLRC1 RING domain) | 0 |
| B5 (RNF115 RING domain) | 0 |
| GSEEEEIPFRCFICRQAFQNPVVTKCRHYFCESCALEHFRATPRCYICDQPTGGIFNPA (RNF113B RING domain (UniProt Q8IZP6)) | 0 |
| B6 (TRIM47 RING domain) | 0 |
| B7 (UBE4B RING domain) | 0 |
| B8 (RNF17 RING domain) | 0 |
| B9 (TRIM34 RING domain) | 0 |
| B10 (SHPRH RING domain) | 0 |
| B11 (TRIM28 RING domain) | 0 |

Sample 3
Target: RING finger protein unkempt homolog, zinc fingers 1-6, GST-SBP tag (UNK, Homo sapiens, UniProt Q9C0B0, residues 30-357)
Method: RNA Bind-n-Seq
Molecule type: RNA
Sample: in vitro
Tested at: not given
Setting: RNA with constant flanks, ends assumed
Reference: input RNA pool
Reading: higher = stronger binding
Shared flanks, not repeated: GGGAGUUCUACAGUCCGACGAUC … CAACAGAGGAUUGAGCAUCA
Target sequence (chain): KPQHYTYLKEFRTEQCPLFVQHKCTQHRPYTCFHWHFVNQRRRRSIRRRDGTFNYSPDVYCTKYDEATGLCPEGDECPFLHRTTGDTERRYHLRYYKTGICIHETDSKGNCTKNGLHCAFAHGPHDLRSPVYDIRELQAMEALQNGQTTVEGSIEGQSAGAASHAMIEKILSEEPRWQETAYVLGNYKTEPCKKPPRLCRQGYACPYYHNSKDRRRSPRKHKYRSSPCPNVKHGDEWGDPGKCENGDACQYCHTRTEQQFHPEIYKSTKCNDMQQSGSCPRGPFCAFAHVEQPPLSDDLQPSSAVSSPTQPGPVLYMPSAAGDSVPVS
| Sequence | bound/input enrichment [ratio] |
| --- | --- |
| UUGGAAGGGCUUCACACCAAGCUGGGGAACAUCAAGACCUUAAACCUGGCAGGCAACCUCCCCGAGAGUCUGAGUGGCCUGCACAAGCUCUACUCACUGGUCAACCUGGAUCUCCGGGAC | 0.121 |
| UGCACUCUUCUGUUCAUUCUGACCCCUUCCUCAACCUCUUCACGCUGGCAUGUCCUUUUGCCGCAGUCUGUAACUUAACUAUAGUAUAAUGAAAAGAAUGACCUAUAAUAUAGGUGUUUU | 2.01 |
| UUUUUGGGGAUUGCUUACAUCGCUGUUGGAUCCAUCUCCUUCCUUCUGGGAGUUGUACUGCCCGUAAUUAAUCAUAAAUAUAGAAACAGUAGUAAUACAGCUGACAUUACCAUUUAAUUU | 5 |
| GUACCACCUGUCGCGGCGCGAGACCUCUGGUGAAAGAAAAGAUGUUGUCCCGGUUAAGAGCCGUUUCCACCACUUGUACUUUGGCAUGUCGACAUUUGCACAUAAAAGAAAAAGGCAAGC | 0.0914 |
| AAGAACUAAUUGCAGAGAUAGGUUCAUUAUCUCUUCAUUGUACCAUAGAUGAGAAGCGGUCCGCUGGCUAUUGUCAAGCAUGUGAUGUUCUUGUACCUUCUUCUGAUAGUACAUCUCAAC | 0.202 |
| UGAACACAAUUCAUAAAGAUUUCUCUUUUAUACCUUCCUCACUGGCCCCCUCCACCUGCCCACCGUCACCAAAUUCUGUUUUAAAUCAAUGACCUAAGAUCAACAAUGAAGUAUUUUAUA | 0.969 |
| GACGCUAGUGAUGGGACAGUACGACUUCGUGGACUACCAUUUGGUUGCAGCAAAGAGGAAACCGUUCAGUUCUUUCAAGGGUUGGAAAUCGUGCCAAAUGGGAUAACAUUGACGAUGGAC | 0.195 |
| AGAAAACAGAUAAAUAAUAUAUUUUAUAGGUUUAUUUAUGAAACAGAGCAUCAUAAUGGCACCGCAGAGUUACUGGAAAUAUUGGGAAGUAUAAUUAAUGGAUUUGCCUUACCACUAAAA | 0.335 |
| GGCUGGGAAACUUCAAAGCCUUCCCAGUCCCCAGCACCUGCCUUUCUCACUACUUCUCUGGAGAUGGCCGGAGAGUUUCCUAGGUCUUUCCAGGGCAGCAUGUGAUUCAUUUGGGGAUGG | 0.127 |
| CCUCAUAGACCUUAUUAGAUAAUGCUGUUUUCUGGGCUCCUUAACUUCCAAAAUAGCUACCCGUUUCCAUUUUUGGUUACAUUGUGAACUAUUUCCAUAUUCCUCUUAACAUGCUAUUUU | 10 |
| CGGAACACGAUCGCCUCCAUCGCUGCUGGCGUUCUAUUUUUCACGGGAUGGUGGAUCAUCACCGACGCGGCUGUCAUGUACCCCAGGAUGGAUCAAUUCAACCAUUCAUACCAUACCUGU | 0.0541 |

Sample 4
Target: Centromere-binding protein 1, full length, N-terminal tag (CBF1, Saccharomyces cerevisiae, UniProt P17106, residues 1-351)
Chain of UniProt P17106 (whole entry, looked up): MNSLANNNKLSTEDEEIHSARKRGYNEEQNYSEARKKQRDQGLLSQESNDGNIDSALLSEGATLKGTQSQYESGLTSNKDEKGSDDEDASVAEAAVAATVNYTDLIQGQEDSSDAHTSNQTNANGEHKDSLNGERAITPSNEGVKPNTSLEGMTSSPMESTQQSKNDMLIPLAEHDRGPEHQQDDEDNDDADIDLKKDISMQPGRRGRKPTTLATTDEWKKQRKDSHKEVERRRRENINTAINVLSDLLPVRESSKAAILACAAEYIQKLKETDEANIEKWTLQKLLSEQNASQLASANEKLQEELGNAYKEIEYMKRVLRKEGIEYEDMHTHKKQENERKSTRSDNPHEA
Method: protein-binding microarray
Molecule type: double-stranded DNA, one strand shown
Sample: in vitro
Tested at: 0.8 µM
Setting: whole 60-bp probe, no competitor
Reading: higher = stronger binding
Shared flanks, not repeated: … GTCTTGATTCGCTTGACGCTGCTG
| Sequence | fluorescence intensity [a.u.] |
| --- | --- |
| GAAACAAAAAATGCTCACCTGACCTTATTCACCTAG | 3170 |
| CTATGAATATACTGCAACGTGCCTATTGAATCCTTC | 749 |
| CCTAACTACTATATGCACGTGACATAGCTTCGTACA | 18100 |
| CTAGCGGCCTCTGTACACCTCACGCTAAATAGCTTC | 554 |
| TGTACGAAGCTATATCAGGTGAATATAGTAGTTAGG | 696 |
| CTAGCCATTAAAGATCTGGTGGCCCCGACAAAATTC | 489 |
| CTACATCTCGTATTACATGTGAATGTGCCTAATTTC | 605 |
| CTAAGTAGCCGTTTCCACGTTTTAACGGCTTGTTTC | 461 |
| GAAATGGTATGGGTGCACGTGGGATTCTAGGGGTAG | 3000 |
| GAATTTAGCTGCCCCCACGTTATCTCTTCTTTTTAG | 602 |
| CCTAACTACTATAGGCACGAGAAATAGCTTCGTACA | 552 |
| CCTAACTACTATATTCTCATGACATAGCTTCGTACA | 573 |
| CTAAAGGACTGCGCAGGTGAGGGTTTTTACGACTTC | 539 |
| GAACCTTTATTTCATCGCGTGATTGAGGAGCATTAG | 1550 |
| GAATATAATGTTTGCTTCATCACCTTTTTTTACTAG | 507 |
| GAAAAATTCTAAATACACGCCACATAAAGAAGGTAG | 547 |
| CTACGGATTACTTTTCCCACGTGCGAAATCATCTTC | 5190 |
| CTACTTTACCGTCATGCACGTGCGCCGCGAAAATTC | 11600 |
| CTATTTTCTTCAACCCACATGGGACTATAAGAGTTC | 598 |

Repeated from above (sample 2):
| Molecule | lacZ reporter activity |
| --- | --- |
| EIKDYKARLTCPCCNMRKKDAVLTKCFHVFCFECVKTRYDTRQRKCPKCNAAFGANDFHR (RNF20 RING domain (UniProt Q5VTR2)) | 0 |
| B2 (CBLL1 RING domain) | 0 |
| B5 (RNF115 RING domain) | 0 |
| VPADASPDSKCPICLDRFDNVSYLDRCLHKFCFRCVQEWSKNKAECPLCKQPFDSIFHSV (TOPORS RING domain (UniProt Q9NS56)) | 0 |
| B8 (RNF17 RING domain) | 0 |
| B3 (RNF10 RING domain) | 0 |
| B4 (NHLRC1 RING domain) | 0 |
| B1 (TRIM32 RING domain) | 0 |
| PLRRLQEEKLCKICMDRHIAVVFIPCGHLVTCKQCAEAVDRCPMCSAVIDFKQRVF (BIRC8 RING domain (UniProt Q96P09)) | 0 |
| AAQLLEEKLTCAICLGLYQDPVTLPCGHNFCGACIRDWWDRCGKACPECREPFPDGAELR (TRIM65 RING domain (UniProt Q6PJ69)) | 0 |
